Measured values collected from several papers.
Compare with care: the assays were run in different laboratories. “And” joins repeats or separate records; there may be more than shown. ± marks the error that the study gave.

Structure (SMILES)	assay	test system	setting	how to read	endpoint	value
CC(C)[C@@H](CS(=O)(=O)C(C)C)N1C(=O)[C@@](C)(CC(=O)O)C[C@H](c2cccc(Cl)c2)[C@H]1c1ccc(Cl)cc1	–	FVB mice Abcb1a/b Abcg2 knockout, brain	oral, 20 mg/kg	–	AUC(0-inf)	2450 ± 263 ng·h/mL
O=C(Nc1nc2cccc(-c3ccc(CN4CCS(=O)(=O)CC4)cc3)n2n1)C1CC1	measured: diarrhoea	human rheumatoid arthritis patients	oral, 200 mg once daily, 4 weeks, regardless of relatedness	–	treatment-emergent adverse events	0%
CN[C@@H]1COc2c(S(=O)(=O)NC(=O)Nc3c4c(cc5c3CCC5)CCC4)cnn2C1	–	human, serum	oral, 900 mg twice daily, day 23, together with: midazolam	–	ALT	335 U/L
CC(C)C[C@H](NC(=O)[C@@H](Cc1c[nH]c2ccccc12)NC(=O)[C@H](Cc1ccc(O)cc1)NC(=O)[C@H](CO)NC(=O)[C@H](Cc1c[nH]c2ccccc12)NC(=O)[C@H](Cc1c[nH]cn1)NC(=O)[C@@H]1CCC(=O)N1)C(=O)N[C@@H](CCCNC(=N)N)C(=O)N1CCC[C@H]1C(=O)NCC(N)=O	–	Chinese CPP children, overall	intramuscular, 22.5 mg, 12 months, day 1, month 6	–	patients, drug-related nocturnal emission	1.5%
CN1CCN(c2cccc3c2CCN(C(=O)/C=C/c2c(-n4cnnn4)ccc(Cl)c2F)[C@@H]3C(=O)Nc2ccc(C(=O)O)cc2)C(=O)C1	–	healthy human subjects	intravenous infusion, 20 mg/h, 5 days, study	–	upper respiratory infection subjects	0%
Cn1c(C(F)(F)F)cc(=O)n(-c2cc(Oc3cccnc3OCC(=O)O)c(Cl)cc2F)c1=O	–	beagle dog, male, plasma	oral capsule, 300 mg/kg/day epyrifenacil, week 13, 90-day study	–	Tmax	2.5 h
C=CC(=O)NC1CCN(c2ncc3ncnc(Nc4ccc(Oc5ccc6c(c5)ncn6C)c(C)c4)c3n2)CC1	–	healthy male humans	oral, 240 mg	–	participants with headache TEAE	25%
O=C(c1cccnc1-c1ccncc1)N1CCC(O)(Cc2ccccc2)CC1	–	healthy Japanese adults, plasma	oral, 100 mg twice daily, day 7	–	AUClast/dose	2.24 ng·h/mL/mg
C=CCN1CC(=O)N2[C@@H](Cc3ccc(O)cc3F)C(=O)N(Cc3cccc(N4CC(N5CCN(CC)CC5)C4)n3)C[C@@H]2N1C(=O)NCc1ccccc1	measured: Malaise	advanced solid tumour patients	all doses, expansion part, grade ≥3	–	treatment-related adverse events	0%
O=C(O)CCC(=O)O.[2H]C([2H])([2H])Oc1cc(C)c2[nH]ccc2c1CN1CC[C@@H](C2CC2)C[C@H]1c1ccc(C(=O)O)cc1	–	healthy Chinese subjects	200 mg, single ascending dose	–	TEAE decreased white cells	0%
C=CC(=O)N(C)CCOc1c(N)ncnc1-c1cc(F)cc(NC(=O)c2ccc(C3CC3)cc2F)c1C	–	human	oral, 50 mg, day 3, arithmetic mean, given alone	–	AUC(0-last) per dose	4.74 ng·h/mL/mg
CNCc1ccc(-c2[nH]c3cc(F)cc4c3c2CCNC4=O)cc1	–	patients	oral, 600 mg twice daily, grade 1	–	constipation incidence	15.4%
CN1C(C(=O)Nc2ccc(F)cn2)=C(O)c2ccccc2S1(=O)=O	–	–	–	–	pKa (basic)	< 2
CC/C(=C(\c1ccccc1)c1ccc(OCCN(C)C)cc1)c1ccccc1	–	male Hartley guinea pigs, anaesthetized	intravenous, 30 mg/kg group, baseline before infusion	–	mean blood pressure	33 ± 0.3 mmHg
CNC(=O)c1cccc(-c2ccc([C@@H](O)[C@H]3O[C@H](CO)[C@@H](O)[C@H](O)[C@@H]3O)c(C)c2)c1	–	male Sprague-Dawley rat, plasma	intravenous, 3 mg/kg, group mean	–	C0	4920 ng/mL
COc1ncc(-c2nc3c(n2C(C)C)[C@H](c2ccc(Cl)cc2)N(c2cc(Cl)cn(C)c2=O)C3=O)c(OC)n1	–	human patients, plasma	oral, 25 mg, high-dose arm, cycle 1 day 1	–	AUC(0-t) geometric mean	1770 ng·h/mL
Cn1cc(Nc2nccc(-c3ccc4c(c3)CN(C3COC3)CC[C@H]4NC(=O)c3cn(C(C)(C)C)nn3)n2)cn1	–	human, whole blood	300 mg twice daily, day 14	relative to: pre-dose baseline	CD8+ T cell count change	-5.23%
COc1ccc([C@@H](O)c2cc(-c3ncnc4cc(N5CCOCC5)ccc34)c(F)cc2Cl)nn1	–	locally advanced rectal cancer patients	250 mg, together with: capecitabine and radiotherapy	–	constipation TEAE incidence	17%
CCC(=O)N(CCC(c1ccc2c(c1)OCO2)c1ccccc1OC)Cc1ccccc1 (centres unmarked)	–	female athymic nude mouse, blood	i.p., 60 mg/kg twice daily, 14 days, group mean	–	EO	2.58%
Cc1cc(-c2nccc3c2ccn3CC(=O)Nc2ccc(-c3cnccn3)cn2)ccn1	–	healthy human volunteers	oral, 7 mg single dose, single ascending dose	–	upper abdominal pain incidence	0%
CC(=O)Oc1ccccc1C(=O)O	–	male Hartley guinea pigs, anaesthetized	intravenous, 3 mg/kg group, baseline before infusion	–	mean blood pressure	37 ± 0.1 mmHg
CCc1cc(C(=O)NC)c2nccc(N3CCc4c(cc(Cn5ccnc5)cc4-c4cn(C)nc4C(F)(F)F)C3=O)c2c1	–	Sprague Dawley rats	oral, 100 mg/kg once daily, 7 days	relative to: vehicle	serum GGT change	-50%
CC(C)=CCC1=C(O)C(=O)c2ccccc2C1=O	cyclic voltammetry	CH2Cl2, Bu4NPF6	0.1 mM	relative to: Ag/AgCl sat. KOH	Epa1 anodic peak potential	1.35 V
N[C@@H](Cc1cc(I)c(Oc2cc(I)c(O)c(I)c2)c(I)c1)C(=O)O	–	–	–	–	pKa (acidic)	3.9

Structure (SMILES)	assay	test system	setting	how to read	endpoint	value
O=C1CC[C@H](N2Cc3cc(N4CCN(CC5CCN(c6ccc([C@@H]7c8ccc(O)cc8CC[C@@H]7c7ccccc7)cc6)CC5)CC4)ccc3C2=O)C(=O)N1	–	human, plasma	oral, 200 mg, median, range, together with: rosuvastatin 10 mg	–	Tlast	73.5 h
CCN1/C(=C/C(C)=O)Sc2ccc(F)cc21	–	cynomolgus monkey	oral, 30 mg/kg, 0.5 h post-dose	–	heart rate	127 ± 16 beats/min
CCc1cc2ncc(CN3CCN(c4ccc(C(=O)NC)nc4)CC3)cc2[nH]c1=O	–	male rat, blood	oral, 50 mg/kg/day, 4 weeks	relative to: vehicle control	white blood cell count ratio	0.62
C[C@H]1O[C@@H](O[C@H]2CC[C@@]3(C)[C@@H](CC[C@]4(C)[C@@H]3C=C[C@]35OC[C@@]6(CCC(C)(C)C[C@H]63)[C@@H](O)C[C@]54C)[C@]2(C)CO)[C@H](O)[C@@H](O[C@@H]2O[C@H](CO)[C@@H](O)[C@H](O)[C@H]2O)[C@H]1O	UHPLC-MS/MS	mouse, plasma	oral, 50 mg/kg, 12 h	–	plasma concentration	0 ng/mL
COc1nc(-c2cc(C)c(N[C@@H](C)c3cc(F)cc(F)c3)nn2)ccc1-n1cnc(C)c1	–	rat Sprague-Dawley male, brain	oral, 50 mg/kg daily for 9 days, 4 h after dose	–	concentration	9080 ng/g
COc1cccc(OC)c1-c1cc(C(=O)NC2(C(=O)O)C3CC4CC(C3)CC2C4)nn1-c1ccc(C(=O)N(C)CCCN(C)CCCN(C)C(=O)CN2CCN(CC(=O)[O-])CCN(CC(=O)[O-])CCN(CC(=O)[O-])CC2)cc1C(C)C.[177Lu+3] (centres unmarked)	–	mouse, HT-29 xenograft, HT-29 tumour	4 h post injection	–	tissue uptake	20.8 %ID/g
Cc1c(-c2ccc(N3CCc4cccc(C(=O)Nc5nc6ccccc6s5)c4C3)nc2C(=O)O)cnn1CC12CC3(C)CC(C)(C1)CC(OCCNCC[C@H](O)CO)(C3)C2	–	anaesthetized male beagle dog	iv infusion, 0.3 mg/kg/min, 30 min	–	plasma concentration	19 ng/mL and 9.12 ng/mL
COc1ccc2c(=O)n(C)c(-c3ccccc3)nc2c1	–	Sprague-Dawley rat, male, stomach	oral, 30 mg/kg, 4 h	–	tissue concentration	11.2 ng/mL
CC(=O)Nc1ccc(S(=O)(=O)Nc2c(C)nn(-c3ccccc3)c2C)cc1	–	–	–	–	pKa	8.56
CC[C@H](C)[C@H](NC(=O)CN)C(=O)N[C@@H](C)C(=O)N[C@@H](CC(=O)O)C(=O)N[C@@H](C)C(=O)N[C@H](C(=O)N[C@@H](CCCCN)C(=O)N[C@@H](C)C(=O)N[C@H](C(=O)N[C@@H](C)C(=O)N[C@@H](CCCCN)C(=O)N[C@@H](C)C(=O)N[C@@H](CC(C)C)C(=O)NCC(N)=O)[C@@H](C)CC)[C@@H](C)CC	circular dichroism at 222 nm	30% TFE	100 µM	–	mean residue ellipticity	-5340 deg cm2/dmol
Cc1ccc(Sc2ccccc2N2CCNCC2)c(C)c1	–	healthy adult men	oral, 20 mg single dose, treatment-emergent adverse events	–	vomiting incidence	0%
CCN1CCN(Cc2ccc(NC(=O)c3ccc(C)c(NC(=O)c4cncc(-c5cccs5)c4)c3)cc2C(F)(F)F)CC1	–	C57BL/6 mouse, plasma	intraperitoneal, 30 mg/kg, single dose	–	Vz/F	36.8 L/kg
Cc1cc(C)cc(NC(=O)CN(C)S(=O)(=O)c2ccc3[nH]c4c(c3c2)CCCC4)c1	–	sheep erythrocytes	1 h, pH 7.5	–	maximum haemolysis	2.4%
Cc1ccc(O)c(-n2nc3ccccc3n2)c1	exposure assessment	human, age 11-16 years	sunscreen	–	mean daily dermal uptake	764 ng/kg body weight/day
c1cncc(-c2cccc(Nc3nccc(NC4CCCCC4)n3)c2)c1	–	MDCKII-WT cells	10 µM, pH 7.4	–	Papp (A to B)	7 ± 3.12 ×10⁻⁶ cm/s
Cc1cc(Nc2cc3ncccc3c(N[C@@H]3C[C@H]4CC[C@@H](C3)N4CCC#N)n2)n[nH]1	–	healthy human subjects	oral, 1000 mg, 2 weeks, single ascending dose	–	papular rash incidence	0%
CNC(=O)c1ccc(-c2cnc3ncc(Cc4ccc5ncccc5c4)n3n2)cc1F	measured: Fatigue, all grades	gastric cancer patients	oral, 600 mg twice daily, expansion cohort, any causality	–	patients with adverse event	56%
COc1cc2c3c(n(CCCN4CCOCC4)c(=O)c2cc1OC)-c1cc2c(cc1C3=O)OCO2	–	beagle dog, female, plasma	intravenous infusion, 50 mg/m^2, 1 h infusion, vehicle 1	–	CL	46.7 ± 9.9 L/h/m²
Cc1ccc2c(c1)sc(-c1ccc(N(C)C)cc1)[n+]2C	–	PBS	free dye	–	brightness	36 M⁻¹ cm⁻¹
Cc1c2oc3c(C)ccc(C(=O)N[C@@H]4C(=O)N[C@H](C(C)C)C(=O)N5CCC[C@H]5C(=O)N(C)CC(=O)N(C)[C@@H](C(C)C)C(=O)O[C@@H]4C)c3nc-2c(C(=O)N[C@@H]2C(=O)N[C@H](C(C)C)C(=O)N3CCC[C@H]3C(=O)N(C)CC(=O)N(C)[C@@H](C(C)C)C(=O)O[C@@H]2C)c(N)c1=O	LC-MS	children with cancer, plasma	dose not given, 1 h	–	maximum plasma concentration	38.1 µg/L
Oc1ccc(/C=C/c2cc(O)cc(O)c2)cc1	–	rat, azoxymethane-injected, blood at sacrifice	10 mg/kg	–	calcium	10.7 mg/dL and 10.3 mg/dL and 10.4 mg/dL
Cc1ccc([C@@H]2O[C@H](CO)[C@@H](O)[C@H](O)[C@H]2O)cc1Cc1ccc(-c2ccc(F)cc2)s1	–	Japanese type 2 diabetes patients	200 mg, day 2, 24 h urine collection	relative to: baseline	urinary calcium excretion change	-33.6 mg
Cc1cc(NC(=O)c2cccc(NC(=O)/C=C/CN(C)C)c2)ccc1Nc1nccc(-c2cccnc2)n1	–	rat Wistar male, plasma	1 µM, 30 min	–	remaining compound	89.3%

Excerpt of the above:
Structure (SMILES)	assay	test system	setting	how to read	endpoint	value
CC[C@H](C)[C@H](NC(=O)CN)C(=O)N[C@@H](C)C(=O)N[C@@H](CC(=O)O)C(=O)N[C@@H](C)C(=O)N[C@H](C(=O)N[C@@H](CCCCN)C(=O)N[C@@H](C)C(=O)N[C@H](C(=O)N[C@@H](C)C(=O)N[C@@H](CCCCN)C(=O)N[C@@H](C)C(=O)N[C@@H](CC(C)C)C(=O)NCC(N)=O)[C@@H](C)CC)[C@@H](C)CC	circular dichroism at 222 nm	30% TFE	100 µM	–	mean residue ellipticity	-5340 deg cm2/dmol
CN1C(C(=O)Nc2ccc(F)cn2)=C(O)c2ccccc2S1(=O)=O	–	–	–	–	pKa (basic)	< 2
Cc1cc(Nc2cc3ncccc3c(N[C@@H]3C[C@H]4CC[C@@H](C3)N4CCC#N)n2)n[nH]1	–	healthy human subjects	oral, 1000 mg, 2 weeks, single ascending dose	–	papular rash incidence	0%
COc1ncc(-c2nc3c(n2C(C)C)[C@H](c2ccc(Cl)cc2)N(c2cc(Cl)cn(C)c2=O)C3=O)c(OC)n1	–	human patients, plasma	oral, 25 mg, high-dose arm, cycle 1 day 1	–	AUC(0-t) geometric mean	1770 ng·h/mL
C=CCN1CC(=O)N2[C@@H](Cc3ccc(O)cc3F)C(=O)N(Cc3cccc(N4CC(N5CCN(CC)CC5)C4)n3)C[C@@H]2N1C(=O)NCc1ccccc1	measured: Malaise	advanced solid tumour patients	all doses, expansion part, grade ≥3	–	treatment-related adverse events	0%
